{"data": "Measurements from different studies", "note": "Numbered parts are unrelated; each lists some results of a single study. “And” joins repeats or separate records; there may be more than shown.", "UniProt P28566, sequence (whole entry, looked up)": "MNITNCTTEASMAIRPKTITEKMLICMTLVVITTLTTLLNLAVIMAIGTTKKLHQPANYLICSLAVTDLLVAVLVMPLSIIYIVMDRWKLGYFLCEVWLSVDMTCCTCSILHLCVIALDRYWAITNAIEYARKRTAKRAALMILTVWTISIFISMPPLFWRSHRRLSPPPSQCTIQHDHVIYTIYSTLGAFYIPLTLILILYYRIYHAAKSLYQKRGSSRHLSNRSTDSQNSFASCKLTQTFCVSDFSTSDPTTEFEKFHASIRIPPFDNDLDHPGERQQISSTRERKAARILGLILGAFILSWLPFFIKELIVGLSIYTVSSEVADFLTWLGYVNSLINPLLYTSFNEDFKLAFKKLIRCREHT"}
{"data": "Sample 1", "target": "Cyclin-dependent kinase 3, with cyclin E (CDK3, Homo sapiens, UniProt Q00526)", "read-out": "enzyme activity", "action": "inhibitor", "concentration": "0.5 µM", "reference": "control", "UniProt Q00526, sequence (whole entry, looked up)": "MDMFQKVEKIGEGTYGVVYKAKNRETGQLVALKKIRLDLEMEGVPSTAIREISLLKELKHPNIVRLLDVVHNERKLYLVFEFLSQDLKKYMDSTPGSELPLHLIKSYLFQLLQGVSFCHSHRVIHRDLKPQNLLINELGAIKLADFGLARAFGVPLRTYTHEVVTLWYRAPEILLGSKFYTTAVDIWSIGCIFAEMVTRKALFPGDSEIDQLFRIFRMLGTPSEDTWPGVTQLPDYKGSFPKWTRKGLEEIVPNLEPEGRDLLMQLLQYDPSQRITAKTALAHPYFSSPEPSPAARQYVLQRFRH"}
{"Compound": "O=c1c(-c2ccc(F)cc2)c(-c2ccncc2)[nH]n1-c1ccc(Cl)cc1", "remaining activity": "86.9%"}
{"Compound": "CC(C)n1cnc2c(Nc3cccc(Cl)c3)nc(NCCO)nc21", "remaining activity": "76.9%"}
{"Compound": "O=Nc1c(-c2c(O)[nH]c3ccccc23)[nH]c2ccccc12", "remaining activity": "52.3%"}
{"Compound": "O=C1c2ccccc2-c2nc3nnnn3nc21", "remaining activity": "73.4%"}
{"Compound": "N#C/C(=C(/N)SC1C=CC=CC1)c1cccc(C(O)c2ccncc2)c1 (stereo not shown)", "remaining activity": "95.6%"}
{"Compound": "Clc1ccc(Nc2nnc(Cc3ccncc3)c3ccccc23)cc1", "remaining activity": "92.7%"}
{"Compound": "Nc1nc(Nc2ccc(S(N)(=O)=O)cc2)nn1C(=S)Nc1c(F)cccc1F", "remaining activity": "-0.912%"}
{"Compound": "CC(C)(C)c1nc2c3cc[nH]c(=O)c3c3cc(F)ccc3c2[nH]1", "remaining activity": "92.1%"}
{"Compound": "c1cc(-c2cnn3cc(-c4ccc(OCCN5CCCCC5)cc4)cnc23)ccn1", "remaining activity": "89.9%"}
{"Compound": "CCCCc1c(-c2ccc(O)cc2)[nH]c2nccnc12", "remaining activity": "76.8%"}
{"Compound": "CCN(CC)CCCCN1c2ccccc2Oc2ccc(Cl)cc21", "remaining activity": "90.3%"}
{"Compound": "CC(C)N(CCC(=O)c1ccc2ccccc2c1)Cc1ccccc1", "remaining activity": "91.4%"}
{"Compound": "C[C@@H](N)[C@H]1CC[C@H](C(=O)Nc2ccncc2)CC1", "remaining activity": "97.1%"}
{"Compound": "O=C(O)/C=C/c1cc(Br)c(Br)c(Br)c1Br", "remaining activity": "98.3%"}
{"Compound": "O=C1NC(=O)/C(=C/c2ccc3c(c2)OC(F)(F)O3)S1", "remaining activity": "99.4%"}
{"Compound": "CNc1cc2c(Nc3cccc(Br)c3)ncnc2cn1", "remaining activity": "80.2%"}
{"Compound": "COc1cc2c(Nc3ccc(Br)cc3F)ncnc2cc1OCC1CCN(C)CC1", "remaining activity": "92.9%"}
{"Compound": "O=C(c1ccccc1)c1ccc(N2CCOCC2)cc1O", "remaining activity": "105%"}
{"Compound": "NC(=O)c1cccc(-c2cc(Nc3ccc(OC(F)(F)F)cc3)ncn2)c1", "remaining activity": "98.8%"}
{"Compound": "COc1cc2c(N3CCN(C(=O)Nc4ccc(OC(C)C)cc4)CC3)ncnc2cc1OCCCN1CCCCC1", "remaining activity": "90.6%"}
{"Compound": "N#CC(c1ccnc(NCCc2cccnc2)n1)c1nc2ccccc2s1 (stereo not shown)", "remaining activity": "92.3%"}
{"Compound": "FC(F)(F)c1ccc(/C=C/c2nc(COc3ccc(CCCCn4ccnn4)cc3)co2)cc1", "remaining activity": "91%"}
{"Compound": "NC(=O)c1ccc(-c2nc(-c3ccc4c(c3)OCCO4)c(-c3ccccn3)[nH]2)cc1", "remaining activity": "99.4%"}
{"data": "Sample 2", "target": "DNA polymerase theta, ATPase domain (POLQ, Homo sapiens, UniProt O75417)", "read-out": "enzyme activity", "action": "inhibitor", "concentration": "77 µM", "reference": "untreated", "UniProt O75417, sequence (whole entry, unmodified, looked up)": "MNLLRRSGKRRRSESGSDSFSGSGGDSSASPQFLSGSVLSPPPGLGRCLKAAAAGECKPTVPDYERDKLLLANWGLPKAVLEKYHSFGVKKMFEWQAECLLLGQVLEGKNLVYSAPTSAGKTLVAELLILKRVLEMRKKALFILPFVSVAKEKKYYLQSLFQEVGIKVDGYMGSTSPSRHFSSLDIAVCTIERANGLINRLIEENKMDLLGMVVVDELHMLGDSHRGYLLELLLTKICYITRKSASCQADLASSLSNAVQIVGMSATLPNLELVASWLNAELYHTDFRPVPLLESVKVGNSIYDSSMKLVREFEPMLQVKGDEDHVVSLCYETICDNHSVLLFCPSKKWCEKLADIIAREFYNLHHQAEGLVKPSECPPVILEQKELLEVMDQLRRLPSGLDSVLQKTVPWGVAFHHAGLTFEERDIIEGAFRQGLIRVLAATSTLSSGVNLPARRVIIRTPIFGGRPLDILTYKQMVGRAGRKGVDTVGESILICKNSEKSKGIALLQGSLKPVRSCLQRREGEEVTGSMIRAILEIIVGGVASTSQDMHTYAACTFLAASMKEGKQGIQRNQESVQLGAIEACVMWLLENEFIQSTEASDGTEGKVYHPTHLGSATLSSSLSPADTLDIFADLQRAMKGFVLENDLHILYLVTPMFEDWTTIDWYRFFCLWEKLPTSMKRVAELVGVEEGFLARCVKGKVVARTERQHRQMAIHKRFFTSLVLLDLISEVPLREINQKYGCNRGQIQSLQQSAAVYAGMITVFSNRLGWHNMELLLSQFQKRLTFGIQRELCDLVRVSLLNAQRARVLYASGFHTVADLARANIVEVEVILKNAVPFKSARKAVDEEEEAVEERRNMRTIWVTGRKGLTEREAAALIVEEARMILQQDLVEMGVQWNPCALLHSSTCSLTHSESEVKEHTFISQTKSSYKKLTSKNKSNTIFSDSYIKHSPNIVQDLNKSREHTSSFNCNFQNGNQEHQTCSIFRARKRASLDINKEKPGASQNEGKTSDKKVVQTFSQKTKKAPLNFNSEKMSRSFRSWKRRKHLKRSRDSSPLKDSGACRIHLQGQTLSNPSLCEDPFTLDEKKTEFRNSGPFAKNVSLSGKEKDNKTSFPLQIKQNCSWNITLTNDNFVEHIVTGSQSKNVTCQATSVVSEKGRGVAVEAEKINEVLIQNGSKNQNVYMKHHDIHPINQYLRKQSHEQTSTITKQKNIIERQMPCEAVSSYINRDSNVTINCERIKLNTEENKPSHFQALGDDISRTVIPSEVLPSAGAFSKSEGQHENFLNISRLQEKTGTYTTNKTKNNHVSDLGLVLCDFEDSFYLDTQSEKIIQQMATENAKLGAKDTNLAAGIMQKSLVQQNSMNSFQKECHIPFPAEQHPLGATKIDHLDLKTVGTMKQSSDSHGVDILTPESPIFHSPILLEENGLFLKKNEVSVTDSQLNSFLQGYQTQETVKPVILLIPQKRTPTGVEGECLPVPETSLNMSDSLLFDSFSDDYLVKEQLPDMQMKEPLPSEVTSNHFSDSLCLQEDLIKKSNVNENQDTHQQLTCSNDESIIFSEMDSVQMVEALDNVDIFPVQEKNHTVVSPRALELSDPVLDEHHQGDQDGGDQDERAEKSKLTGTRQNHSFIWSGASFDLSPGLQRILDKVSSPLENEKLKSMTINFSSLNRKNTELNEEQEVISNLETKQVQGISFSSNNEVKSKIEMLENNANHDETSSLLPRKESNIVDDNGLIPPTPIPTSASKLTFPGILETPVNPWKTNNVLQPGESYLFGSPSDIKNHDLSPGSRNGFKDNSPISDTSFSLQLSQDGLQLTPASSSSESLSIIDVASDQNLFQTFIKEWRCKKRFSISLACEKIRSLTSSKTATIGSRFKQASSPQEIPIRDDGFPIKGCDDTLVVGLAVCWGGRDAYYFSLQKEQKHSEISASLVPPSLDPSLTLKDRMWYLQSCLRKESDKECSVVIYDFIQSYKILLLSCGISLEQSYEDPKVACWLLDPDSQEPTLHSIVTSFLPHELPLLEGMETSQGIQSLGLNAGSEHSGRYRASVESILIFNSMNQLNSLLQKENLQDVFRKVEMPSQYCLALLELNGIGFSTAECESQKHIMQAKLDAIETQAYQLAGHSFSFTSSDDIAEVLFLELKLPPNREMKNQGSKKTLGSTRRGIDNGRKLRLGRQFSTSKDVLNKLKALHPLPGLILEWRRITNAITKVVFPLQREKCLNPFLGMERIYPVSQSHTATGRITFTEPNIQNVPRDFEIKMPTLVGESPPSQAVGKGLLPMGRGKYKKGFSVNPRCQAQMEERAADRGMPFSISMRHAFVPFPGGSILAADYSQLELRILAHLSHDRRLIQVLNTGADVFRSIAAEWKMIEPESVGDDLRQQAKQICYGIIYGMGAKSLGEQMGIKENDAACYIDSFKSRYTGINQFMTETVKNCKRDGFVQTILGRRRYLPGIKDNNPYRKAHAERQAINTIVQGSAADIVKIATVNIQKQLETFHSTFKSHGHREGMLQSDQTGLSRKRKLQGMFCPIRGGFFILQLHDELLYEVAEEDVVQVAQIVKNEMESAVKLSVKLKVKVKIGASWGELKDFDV"}
{"Structure (SMILES)": "Cc1cc(Nc2nc(-c3ccccc3)nc3ccccc23)n[nH]1", "remaining activity": "116%"}
{"Structure (SMILES)": "CCCCC(F)(F)[C@@]1(O)CC[C@H]2[C@@H](CC(=O)[C@@H]2CCCCCCC(=O)O)O1", "remaining activity": "102%"}
{"Structure (SMILES)": "CN(C)[C@@H]1C(O)=C(C(N)=O)C(=O)[C@@]2(O)C(O)=C3C(=O)c4c(O)ccc(Cl)c4[C@@](C)(O)[C@H]3C[C@@H]12", "remaining activity": "99%"}
{"Structure (SMILES)": "O=C1C(SCCO)=C(SCCO)C(=O)c2ccccc21", "remaining activity": "79%"}
{"Structure (SMILES)": "NC(N)=NC(=O)c1nc(Cl)c(N2CCCCCC2)nc1N", "remaining activity": "103%"}
{"Structure (SMILES)": "CN[C@@H]1[C@H](O[C@H]2[C@H](O[C@H]3[C@H](O)[C@@H](O)[C@H](N=C(N)N)[C@@H](O)[C@@H]3N=C(N)N)O[C@@H](C)[C@]2(O)C=O)O[C@@H](CO)[C@H](O)[C@H]1O", "remaining activity": "88.8%"}
{"Structure (SMILES)": "CN(C)/N=N/c1[nH]cnc1C(N)=O", "remaining activity": "94.3% and 110%"}
{"Structure (SMILES)": "O=C(O)c1cccc(-c2noc(-c3ccccc3F)n2)c1", "remaining activity": "84.6%"}
{"Structure (SMILES)": "COc1ccc(-c2cc3c(C)nc(N)nc3n([C@H]3CC[C@H](OCCO)CC3)c2=O)cn1", "remaining activity": "99.2%"}
{"Structure (SMILES)": "O=C1C(CC[S+]([O-])c2ccccc2)C(=O)N(c2ccccc2)N1c1ccccc1 (stereo not shown)", "remaining activity": "98.8%"}
{"Structure (SMILES)": "C=CC[N+]1([C@H]2C[C@H]3[C@@H]4CC[C@H]5C[C@H](O)[C@@H](N6CCOCC6)C[C@]5(C)[C@H]4CC[C@]3(C)[C@H]2OC(C)=O)CCCC1", "remaining activity": "98.3%"}
{"Structure (SMILES)": "COc1ccc(-c2ccc3ncc4c(c3c2)n(-c2ccc(N3CCNCC3)c(C(F)(F)F)c2)c(=O)n4C)cn1", "remaining activity": "83%"}
{"Structure (SMILES)": "CCn1c(=O)c2c(nc(/C=C/c3ccc(OC)c(OC)c3)n2C)n(CC)c1=O", "remaining activity": "97%"}
{"Structure (SMILES)": "COc1cc([C@@H]2c3cc4c(cc3[C@@H](O[C@@H]3O[C@@H]5CO[C@@H](c6cccs6)O[C@H]5[C@H](O)[C@H]3O)[C@H]3COC(=O)[C@H]23)OCO4)cc(OC)c1O", "remaining activity": "100%"}
{"data": "Sample 3", "target": "Calcium/calmodulin-dependent protein kinase type II subunit alpha (CAMK2A, Homo sapiens, UniProt Q9UQM7)", "read-out": "enzyme activity", "action": "inhibitor", "concentration": "10 µM", "UniProt Q9UQM7, sequence (whole entry, looked up)": "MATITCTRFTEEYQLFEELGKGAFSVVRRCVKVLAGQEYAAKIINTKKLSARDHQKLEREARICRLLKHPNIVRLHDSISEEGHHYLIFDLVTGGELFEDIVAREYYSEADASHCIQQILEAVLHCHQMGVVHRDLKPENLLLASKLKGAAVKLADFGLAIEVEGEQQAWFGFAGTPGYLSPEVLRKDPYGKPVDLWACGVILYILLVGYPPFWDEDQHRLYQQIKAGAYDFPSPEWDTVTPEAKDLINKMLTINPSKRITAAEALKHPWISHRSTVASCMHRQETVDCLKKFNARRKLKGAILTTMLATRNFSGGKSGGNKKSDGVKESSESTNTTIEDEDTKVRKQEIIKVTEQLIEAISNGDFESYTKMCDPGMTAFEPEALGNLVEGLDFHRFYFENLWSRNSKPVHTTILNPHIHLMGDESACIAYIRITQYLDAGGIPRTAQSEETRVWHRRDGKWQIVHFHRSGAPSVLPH"}
{"SMILES": "CC(C)(C)NC[C@@H](O)COc1ccccc1C1CCCC1", "inhibition [%]": -5}
{"SMILES": "O=C(O)C[C@H](O)C(=O)O", "inhibition [%]": -3}
{"SMILES": "C[C@@H](O)[C@H]1C(=O)N2C(C(=O)O)=C(S[C@@H]3CN[C@H](C(=O)N(C)C)C3)[C@H](C)[C@H]12", "inhibition [%]": -20}
{"SMILES": "CC/C=C\\C/C=C\\C/C=C\\CCCCCCCC(=O)O", "inhibition [%]": -16}
{"SMILES": "O=C(O)CC(C(=O)O)C(O)C(=O)O (racemic)", "inhibition [%]": -5}
{"SMILES": "COc1ccc(/C=C/C(=O)c2ccc(OC)cc2)cc1", "inhibition [%]": 35}
{"SMILES": "CN(C)CCOC(=O)COc1ccc(Cl)cc1", "inhibition [%]": -14}
{"SMILES": "CC(=O)O[C@@H](C[C@@H](C)C1=C2C[C@H](O)[C@H]3[C@@]4(C)CCC(=O)C(C)(C)[C@@H]4CC[C@]3(C)[C@@]2(C)CC1=O)[C@H]1OC1(C)C", "inhibition [%]": -28}
{"data": "Mixed results"}
{"Structure (SMILES)": "CC[C@H](CC(=O)O)n1c(=O)c2ncccc2n(Cc2cn(C)c3cc(C)cc(C)c23)c1=O", "target": "5-hydroxytryptamine receptor 1E (HTR1E, Homo sapiens, UniProt P28566)", "assay": "ligand displacement", "conditions": "10 µM", "measurement": "inhibition", "result": "-9.73%"}
{"note": "A few entries again (sample 1):"}
{"Compound": "COc1cc2c(Nc3ccc(Br)cc3F)ncnc2cc1OCC1CCN(C)CC1", "remaining activity": "92.9%"}
{"Compound": "O=C(O)/C=C/c1cc(Br)c(Br)c(Br)c1Br", "remaining activity": "98.3%"}
{"Compound": "O=Nc1c(-c2c(O)[nH]c3ccccc23)[nH]c2ccccc12", "remaining activity": "52.3%"}
{"Compound": "Clc1ccc(Nc2nnc(Cc3ccncc3)c3ccccc23)cc1", "remaining activity": "92.7%"}
{"Compound": "CC(C)n1cnc2c(Nc3cccc(Cl)c3)nc(NCCO)nc21", "remaining activity": "76.9%"}
{"Compound": "O=C1c2ccccc2-c2nc3nnnn3nc21", "remaining activity": "73.4%"}
{"Compound": "NC(=O)c1ccc(-c2nc(-c3ccc4c(c3)OCCO4)c(-c3ccccn3)[nH]2)cc1", "remaining activity": "99.4%"}
